Assay results of several laboratories.
± gives the spread as reported.
Chain of UniProt Q15131 (whole entry, looked up): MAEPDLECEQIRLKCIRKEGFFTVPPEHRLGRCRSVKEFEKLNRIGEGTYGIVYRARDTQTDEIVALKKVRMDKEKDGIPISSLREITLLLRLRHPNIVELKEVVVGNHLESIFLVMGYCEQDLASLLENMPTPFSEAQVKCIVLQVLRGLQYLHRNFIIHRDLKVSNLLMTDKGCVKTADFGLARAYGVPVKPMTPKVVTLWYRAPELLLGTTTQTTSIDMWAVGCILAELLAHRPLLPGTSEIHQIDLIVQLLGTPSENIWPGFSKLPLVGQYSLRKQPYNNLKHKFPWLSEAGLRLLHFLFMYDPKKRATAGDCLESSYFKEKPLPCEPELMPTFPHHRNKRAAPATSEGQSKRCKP

| SMILES | tested on | assay | system | conditions | how to read | measurement | result |
| --- | --- | --- | --- | --- | --- | --- | --- |
| CC[C@H](C)[C@H](NC(=O)[C@H](CO)NC(=O)[C@H](Cc1ccc(O)cc1)NC(=O)[C@H](Cc1ccc(O)cc1)NC(=O)[C@H](CC(N)=O)NC(=O)CNC(=O)[C@H](CO)NC(=O)[C@H](Cc1ccc(O)cc1)NC(=O)[C@H](CO)NC(=O)[C@H](CO)NC(=O)[C@H](CC(N)=O)NC(=O)COCCOCCNC(=O)CN1CCN(CC(=O)O)CCN(CC(=O)O)CCN(CC(=O)O)CC1)C(=O)N[C@@H](CC(C)C)C(N)=O [copper-64 labelled] |  | dynamic PET | KPC mouse Ptf1a-CreER tdTomato, metastases | intravenous, dose not given, 2.5 min, 84 d after tamoxifen |  | tissue uptake | 14.5 %ID/mL |
| CC(CCC(=O)NCC(=O)O)C1CCC2C3C(O)CC4CC(OC5OC(C(=O)O)C(O)C(O)C5O)CCC4(C)C3CCC12C (stereo not shown) |  |  | women, T/T genotype, plasma | dose not given, geometric mean |  | glucuronide to parent ratio | 0.046 |
| CCCCCCCCCCCCCCCC(=O)N[C@@H](CCC(=O)NCCOCCOCCC(=O)NCCOCCOCCC(=O)NCCCC[C@H](NC(=O)[C@H](CC(=O)O)NC(=O)[C@H](CC(C)C)NC(=O)[C@H](Cc1ccc(O)cc1)NC(=O)[C@H](CCCCN)NC(=O)[C@H](CO)NC(=O)[C@H](Cc1ccc(O)cc1)NC(=O)[C@H](CC(=O)O)NC(=O)[C@H](CO)NC(=O)[C@@H](NC(=O)[C@H](Cc1ccccc1)NC(=O)[C@@H](NC(=O)CNC(=O)[C@H](CCC(N)=O)NC(=O)[C@@H](CO)NC(=O)[C@@H](N)Cc1c[nH]cn1)[C@@H](C)O)[C@@H](C)O)C(=O)N[C@@H](CCCNC(=N)N)C(=O)N[C@@H](CCCNC(=N)N)C(=O)N[C@@H](C)C(=O)N[C@@H](CCC(N)=O)C(=O)N[C@@H](CC(=O)O)C(=O)N[C@@H](Cc1ccccc1)C(=O)N[C@H](C(=O)N[C@@H](CCC(N)=O)C(=O)N[C@@H](Cc1c[nH]c2ccccc12)C(=O)N[C@@H](CC(C)C)C(=O)N[C@@H](CC(C)C)C(=O)N[C@@H](CC(N)=O)C(=O)N[C@H](C(=O)NCC(=O)NCC(=O)N1CCC[C@H]1C(=O)N[C@@H](CO)C(=O)N[C@@H](CO)C(=O)NCC(=O)N[C@@H](C)C(=O)N1CCC[C@H]1C(=O)N1CCC[C@H]1C(=O)N1CCC[C@H]1C(=O)N[C@@H](CO)C(N)=O)[C@@H](C)O)C(C)C)C(=O)O |  |  | rhesus monkey, both sexes, plasma | subcutaneous, 20 µg/kg, multiple doses, day 7 |  | half-life | 1.94 ± 0.305 h |
| C#Cc1c(F)ccc2cc(O)cc(-c3ncc4c(N5CC6CCC(C5)N6C(=O)OC(C)OC(=O)C(CCCC)CCCC)nc(OC[C@@]56CCCN5C[C@H](F)C6)nc4c3F)c12 (stereo partly shown) |  | measured: prodrug | mouse whole blood | 1 µM |  | t1/2 | 1.65 h |
| Cc1cc(C(=O)Nc2nc3cccc(C)c3n2[C@H]2CCCCN(C(=O)/C=C/CN(C)C)C2)ccn1 | Trypanosoma brucei | propidium iodide flow cytometry | bloodstream form | concentration not given, 3 h |  | cells in sub-G0 phase | 1.37% |
| CCOc1ccccc1-n1c(CN2CCNCC2)nc2ccccc2c1=O |  |  | C57BL/6 mouse, male, plasma | oral, 6 mg/kg |  | apparent clearance CL/F | 129 mL/min/kg |
| N#[11C]c1ccc(-c2csc(NN=C3CCCC3)n2)cc1 |  |  | C57BL/6 mouse, male | intravenous, 3 MBq, 5 min |  | uptake in small intestine with contents | 24.2 ± 3.83 %ID/g |
| CN1Cc2cc(Cl)ccc2-n2c(nnc2C2CCN(c3cccc(F)n3)CC2)C1 |  |  | Sprague-Dawley rats male, striatum | intravenous, 0.03 mg/kg, 60 min |  | concentration | 1.19 ± 0.53 ng/mL |
| CC(=O)NCCCC[C@@H]1NC(=O)[C@H](Cc2c[nH]c3c(C)cccc23)NC(=O)[C@H]([C@@H](C)O)NC(=O)[C@H](CC(N)=O)NC(=O)[C@@H](NC(C)=O)C(C)(C)SSC(C)(C)[C@@H](C(=O)N[C@@H](Cc2ccc(OCCN)cc2)C(=O)N[C@@H](Cc2ccc3ccccc3c2)C(=O)NC2(C(=O)N[C@@H](CCC(=O)O)C(=O)N[C@@H](CC(N)=O)C(=O)N[C@@H](Cc3cccnc3)C(=O)N(C)CC(N)=O)CCOCC2)NC1=O |  |  | human, plasma | oral, 100 mg, single dose, healthy volunteers |  | CL/F | 5230 L/h |
| CN(C)[C@H]1C[C@@]23CC[C@@]4(O2)C(=CC[C@]2(C)[C@@H](c5ccc6ccncc6c5)CC[C@H]24)C=C3[C@@H](O)[C@@H]1O | Cyclin-dependent kinase 10 (CDK10, Homo sapiens, UniProt Q15131) | ATP probe labelling, inhibitor, KiNativ profiling |  | 1 µM |  | inhibition | 3.9% |
| CC[C@H](C)[C@H](NC(=O)[C@H](CCCCN)NC(=O)CNC(=O)[C@H](CC(C)C)NC(=O)[C@H](Cc1ccccc1)NC(=O)[C@H](CCCCN)NC(=O)[C@H](CO)NC(=O)[C@H](Cc1ccccc1)NC(=O)[C@H](Cc1c[nH]c2ccccc12)NC(=O)[C@H](CCC(N)=O)NC(=O)[C@@H](NC(=O)[C@H](Cc1ccccc1)NC(=O)CCCCCNC(=O)CN1CCN(CC(=O)O)CCN(CC(=O)O)CCN(CC(=O)O)CC1)C(C)C)C(=O)N[C@@H](CCC(=O)O)C(=O)N1CCC[C@H]1C(=O)N[C@@H](CC(=O)O)C(=O)N[C@H](C(=O)N[C@@H](CO)C(=O)N[C@@H](CCC(N)=O)C(=O)N[C@H](C(=O)N[C@@H](CCC(N)=O)C(=O)N[C@@H](CC(=O)O)C(=O)N1CCC[C@H]1C(=O)N[C@@H](CC(N)=O)C(=O)N[C@@H](CC(=O)O)C(=O)N[C@@H](CCC(N)=O)C(=O)N[C@@H](Cc1ccc(O)cc1)C(=O)N[C@@H](CCC(=O)O)C(=O)N1CCC[C@H]1C(=O)N[C@@H](Cc1ccccc1)C(=O)O)C(C)C)C(C)C [copper-64 labelled] |  |  | BALB/c mice, male, CT26 tumour-bearing, kidneys | 2 h, vehicle-treated |  | tissue uptake | 34.5 ± 4.9 %ID/g |
| COc1ccccc1-c1n[nH]c2nc(N[C@H]3CC[C@H](NS(=O)(=O)CC(C)C)CC3)ncc12 |  | bead binding, competition bead pull-down, measured: LINJ.31.1230 | Leishmania donovani extract | 10 µM | reference: vehicle | relative abundance | 0.71 |
| CC(C)(C)C(=O)OCOP(=O)(OCOC(=O)C(C)(C)C)C1CCCN(O)C1=O (stereo not shown) | HT-29 |  |  |  |  | log LC50 | > -4 log M |
| CCCCC[C@@H]1NC(=O)[C@@H](C)N(C)C(=O)[C@H](CCCCC)N(C)C(=O)[C@@H](C)N(C)C(=O)[C@H](CCCCC)N(C)C(=O)[C@@H](C)N(C)C(=O)[C@H](CCCCC)NC(=O)[C@@H](C)N(C)C1=O |  | PAMPA, HPLC-UV |  | 500 µM, pH 7.4 |  | log Papp | -5.42 ± 0.04 |
| CSCC[C@H](N)C(=O)N[C@@H](C)C(=O)N[C@@H](CCCNC(=N)N)C(=O)N[C@@H](CCCNC(=N)N)C(=O)N[C@@H](CC(=O)O)C(=O)N[C@@H](CCCCN)C(=O)N[C@H](C(=O)N[C@@H](CC(=O)O)C(=O)N[C@@H](Cc1ccccc1)C(=O)N[C@@H](C)C(=O)N[C@@H](CCCNC(=N)N)C(=O)N[C@@H](CCCNC(=N)N)C(=O)N[C@@H](CCCNC(=N)N)C(=O)N[C@@H](CCCNC(=N)N)C(=O)NCCCCCC(=O)NCCCCC(NC(=O)CCCCCNC(=O)[C@H](CCCNC(=N)N)NC(=O)[C@H](CCCNC(=N)N)NC(=O)[C@H](CCCNC(=N)N)NC(=O)[C@H](CCCNC(=N)N)NC(=O)[C@H](C)NC(=O)[C@H](Cc1ccccc1)NC(=O)[C@H](CC(=O)O)NC(=O)[C@@H](NC(=O)[C@H](CCCCN)NC(=O)[C@H](CC(=O)O)NC(=O)[C@H](CCCNC(=N)N)NC(=O)[C@H](CCCNC(=N)N)NC(=O)[C@H](C)NC(=O)[C@@H](N)CCSC)[C@@H](C)O)C(=O)NCCCCC(NC(=O)C(CCCCNC(=O)CCCCCNC(=O)[C@H](CCCNC(=N)N)NC(=O)[C@H](CCCNC(=N)N)NC(=O)[C@H](CCCNC(=N)N)NC(=O)[C@H](CCCNC(=N)N)NC(=O)[C@H](C)NC(=O)[C@H](Cc1ccccc1)NC(=O)[C@H](CC(=O)O)NC(=O)[C@@H](NC(=O)[C@H](CCCCN)NC(=O)[C@H](CC(=O)O)NC(=O)[C@H](CCCNC(=N)N)NC(=O)[C@H](CCCNC(=N)N)NC(=O)[C@H](C)NC(=O)[C@@H](N)CCSC)[C@@H](C)O)NC(=O)CCCCCNC(=O)[C@H](CCCNC(=N)N)NC(=O)[C@H](CCCNC(=N)N)NC(=O)[C@H](CCCNC(=N)N)NC(=O)[C@H](CCCNC(=N)N)NC(=O)[C@H](C)NC(=O)[C@H](Cc1ccccc1)NC(=O)[C@H](CC(=O)O)NC(=O)[C@@H](NC(=O)[C@H](CCCCN)NC(=O)[C@H](CC(=O)O)NC(=O)[C@H](CCCNC(=N)N)NC(=O)[C@H](CCCNC(=N)N)NC(=O)[C@H](C)NC(=O)[C@@H](N)CCSC)[C@@H](C)O)C(N)=O)[C@@H](C)O (stereo partly shown) |  |  | C57BL/6 mouse female, thymus | dose not given, 6 h | reference: total | mean tissue distribution | 0.99% |
| COc1ccccc1-c1n[nH]c2nc(NC3CCN(C(=O)Cc4ccc(F)cc4F)CC3)ncc12 |  | bead binding, competition bead pull-down, measured: LINJ.23.0860 | Leishmania donovani extract | 10 µM | reference: vehicle | relative abundance | 0.74 |
| COc1cc2ncnc(Oc3ccc(Nc4nccc5[nH]cc(-c6ccc(F)cc6)c(=O)c45)cc3F)c2cc1OC |  | general toxicity | Sprague-Dawley rat | oral, multiple doses, once daily |  | MTD | 20 mg/kg/day |
| O=C1NC2(CC2)COc2ncc(F)cc2[C@H]2COCCN2c2ccn3ncc1c3n2 |  |  | Sprague-Dawley rat, female, brain | oral, 10 mg/kg/day, 4 weeks dosing, end of recovery |  | organ-to-body weight ratio | 0.662 ± 0.09% |
| C/C(=N\OCCCN1CCCCC1)c1ccc(C(F)(F)F)cc1 |  |  | mouse, plasma | oral, 75 mg/kg twice daily, day 7 |  | AUC(0-t) | 3930 ± 254 ng·h/mL |

Some of these lines once more:
| SMILES | tested on | assay | system | conditions | how to read | measurement | result |
| --- | --- | --- | --- | --- | --- | --- | --- |
| CCOc1ccccc1-n1c(CN2CCNCC2)nc2ccccc2c1=O |  |  | C57BL/6 mouse, male, plasma | oral, 6 mg/kg |  | apparent clearance CL/F | 129 mL/min/kg |
